Measurements pooled from the literature.
Several values in a cell are separate wells, animals, samples, runs or records. ± gives the spread as reported.
CASP6: Caspase-6 (CASP6, Homo sapiens, UniProt P55212)
UniProt P55212, sequence (whole entry, looked up): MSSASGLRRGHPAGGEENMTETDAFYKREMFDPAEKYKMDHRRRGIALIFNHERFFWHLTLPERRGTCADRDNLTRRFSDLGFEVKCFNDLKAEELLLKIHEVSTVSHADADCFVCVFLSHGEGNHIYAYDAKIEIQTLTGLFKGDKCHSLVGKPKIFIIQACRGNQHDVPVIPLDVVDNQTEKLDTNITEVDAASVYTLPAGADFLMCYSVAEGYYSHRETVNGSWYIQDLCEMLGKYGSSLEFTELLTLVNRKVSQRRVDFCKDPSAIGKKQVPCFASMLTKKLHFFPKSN
TDP1: Tyrosyl-DNA phosphodiesterase 1 (TDP1, Homo sapiens, UniProt Q9NUW8)
UniProt Q9NUW8, sequence (whole entry, looked up): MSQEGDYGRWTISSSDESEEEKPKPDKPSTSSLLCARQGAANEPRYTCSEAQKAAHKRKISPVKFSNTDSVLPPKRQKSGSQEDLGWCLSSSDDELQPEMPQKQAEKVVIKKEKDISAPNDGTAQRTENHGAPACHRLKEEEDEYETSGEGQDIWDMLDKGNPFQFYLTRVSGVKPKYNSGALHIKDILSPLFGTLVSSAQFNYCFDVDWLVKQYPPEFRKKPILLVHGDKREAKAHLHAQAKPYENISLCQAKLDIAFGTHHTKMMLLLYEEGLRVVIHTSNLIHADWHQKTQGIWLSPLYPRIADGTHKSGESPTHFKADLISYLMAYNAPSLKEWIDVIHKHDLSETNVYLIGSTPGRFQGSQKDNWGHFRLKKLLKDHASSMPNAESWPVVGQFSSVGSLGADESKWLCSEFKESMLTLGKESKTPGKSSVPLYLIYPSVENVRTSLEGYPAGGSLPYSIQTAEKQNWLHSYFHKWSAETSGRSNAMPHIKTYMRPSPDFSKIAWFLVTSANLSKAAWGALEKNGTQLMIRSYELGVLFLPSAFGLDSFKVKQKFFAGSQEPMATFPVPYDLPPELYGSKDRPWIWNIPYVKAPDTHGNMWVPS
Uncharacterized protein: Uncharacterized protein (Trypanosoma brucei brucei, UniProt Q386Q8)
BRD4 BD1: Bromodomain-containing protein 4, BD1 (BRD4, Homo sapiens, UniProt O60885)
Gria1: Glutamate receptor 1 (Gria1, Rattus norvegicus, UniProt P19490)
UniProt P19490, sequence (whole entry, looked up): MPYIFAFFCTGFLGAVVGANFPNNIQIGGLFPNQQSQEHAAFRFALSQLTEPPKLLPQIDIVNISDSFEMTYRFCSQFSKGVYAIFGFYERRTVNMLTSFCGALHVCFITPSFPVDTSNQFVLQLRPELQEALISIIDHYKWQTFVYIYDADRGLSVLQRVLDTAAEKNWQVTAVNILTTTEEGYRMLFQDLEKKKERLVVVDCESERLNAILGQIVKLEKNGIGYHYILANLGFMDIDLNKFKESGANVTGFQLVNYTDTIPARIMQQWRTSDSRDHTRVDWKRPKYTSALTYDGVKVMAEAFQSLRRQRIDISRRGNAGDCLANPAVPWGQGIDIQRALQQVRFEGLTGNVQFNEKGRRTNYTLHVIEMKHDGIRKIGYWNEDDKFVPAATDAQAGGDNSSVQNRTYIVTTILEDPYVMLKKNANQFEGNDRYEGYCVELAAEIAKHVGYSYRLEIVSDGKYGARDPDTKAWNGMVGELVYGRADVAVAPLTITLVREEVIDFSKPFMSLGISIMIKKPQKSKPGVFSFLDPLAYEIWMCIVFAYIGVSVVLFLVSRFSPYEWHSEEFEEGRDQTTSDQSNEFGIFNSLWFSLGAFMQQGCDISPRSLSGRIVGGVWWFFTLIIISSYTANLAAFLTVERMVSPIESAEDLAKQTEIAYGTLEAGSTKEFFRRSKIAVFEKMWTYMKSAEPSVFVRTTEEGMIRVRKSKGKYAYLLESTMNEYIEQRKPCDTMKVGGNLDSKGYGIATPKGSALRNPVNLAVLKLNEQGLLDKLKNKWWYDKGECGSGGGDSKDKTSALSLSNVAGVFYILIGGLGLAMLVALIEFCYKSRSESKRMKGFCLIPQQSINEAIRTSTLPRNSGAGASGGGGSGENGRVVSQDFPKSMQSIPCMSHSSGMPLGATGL
T1: RNA, abasic bulge mismatch; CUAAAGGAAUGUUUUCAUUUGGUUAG
UniProt Q9CAJ0, sequence (whole entry, looked up): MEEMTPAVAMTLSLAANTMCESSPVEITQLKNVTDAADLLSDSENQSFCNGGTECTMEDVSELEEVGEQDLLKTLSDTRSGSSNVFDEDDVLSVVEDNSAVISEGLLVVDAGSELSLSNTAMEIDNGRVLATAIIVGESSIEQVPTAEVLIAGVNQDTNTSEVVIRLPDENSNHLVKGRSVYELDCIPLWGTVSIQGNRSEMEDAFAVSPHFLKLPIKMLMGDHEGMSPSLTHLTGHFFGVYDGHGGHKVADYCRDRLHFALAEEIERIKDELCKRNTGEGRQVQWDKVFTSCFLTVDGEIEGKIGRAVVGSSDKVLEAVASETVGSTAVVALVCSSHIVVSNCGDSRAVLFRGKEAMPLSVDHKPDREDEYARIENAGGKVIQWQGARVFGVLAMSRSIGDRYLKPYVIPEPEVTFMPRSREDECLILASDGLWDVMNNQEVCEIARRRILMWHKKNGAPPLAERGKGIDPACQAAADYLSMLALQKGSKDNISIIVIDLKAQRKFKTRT
UniProt Q9P258, sequence (whole entry, looked up): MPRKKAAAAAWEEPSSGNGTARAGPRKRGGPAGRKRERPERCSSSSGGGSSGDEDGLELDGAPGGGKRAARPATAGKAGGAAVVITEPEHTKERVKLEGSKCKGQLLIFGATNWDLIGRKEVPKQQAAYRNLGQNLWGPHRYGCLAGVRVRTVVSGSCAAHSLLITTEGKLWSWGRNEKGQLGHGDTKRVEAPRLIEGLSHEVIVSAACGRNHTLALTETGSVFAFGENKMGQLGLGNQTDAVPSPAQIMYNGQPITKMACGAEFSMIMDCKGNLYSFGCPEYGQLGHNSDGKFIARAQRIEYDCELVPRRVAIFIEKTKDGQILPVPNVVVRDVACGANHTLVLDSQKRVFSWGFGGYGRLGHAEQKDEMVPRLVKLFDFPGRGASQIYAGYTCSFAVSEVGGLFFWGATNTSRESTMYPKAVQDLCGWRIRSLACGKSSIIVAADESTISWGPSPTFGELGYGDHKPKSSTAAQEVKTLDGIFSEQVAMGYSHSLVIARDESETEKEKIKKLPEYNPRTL
UniProt P46089, sequence (whole entry, looked up): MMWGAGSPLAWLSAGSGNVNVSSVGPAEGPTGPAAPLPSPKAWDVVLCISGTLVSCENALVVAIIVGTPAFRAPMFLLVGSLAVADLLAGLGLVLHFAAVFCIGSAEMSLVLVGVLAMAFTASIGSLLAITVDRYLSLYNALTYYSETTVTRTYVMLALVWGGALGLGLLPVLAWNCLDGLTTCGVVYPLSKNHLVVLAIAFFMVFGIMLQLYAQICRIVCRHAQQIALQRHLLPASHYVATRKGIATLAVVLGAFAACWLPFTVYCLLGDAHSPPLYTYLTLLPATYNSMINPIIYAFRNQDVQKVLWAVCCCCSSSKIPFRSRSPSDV
UniProt P07550, sequence (whole entry, looked up): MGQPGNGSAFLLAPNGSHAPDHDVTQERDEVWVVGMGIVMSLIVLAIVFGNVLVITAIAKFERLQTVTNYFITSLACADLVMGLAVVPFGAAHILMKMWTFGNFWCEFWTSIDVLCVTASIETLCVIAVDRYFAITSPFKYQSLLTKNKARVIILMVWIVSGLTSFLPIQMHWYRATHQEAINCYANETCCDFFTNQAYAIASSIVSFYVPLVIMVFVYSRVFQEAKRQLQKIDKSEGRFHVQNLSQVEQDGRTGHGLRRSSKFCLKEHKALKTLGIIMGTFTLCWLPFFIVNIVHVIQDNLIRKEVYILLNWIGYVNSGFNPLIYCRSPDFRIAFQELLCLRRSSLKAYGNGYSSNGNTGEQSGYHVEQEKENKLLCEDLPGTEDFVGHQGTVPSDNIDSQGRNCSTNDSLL
UniProt P04756, sequence (whole entry, unmodified, looked up): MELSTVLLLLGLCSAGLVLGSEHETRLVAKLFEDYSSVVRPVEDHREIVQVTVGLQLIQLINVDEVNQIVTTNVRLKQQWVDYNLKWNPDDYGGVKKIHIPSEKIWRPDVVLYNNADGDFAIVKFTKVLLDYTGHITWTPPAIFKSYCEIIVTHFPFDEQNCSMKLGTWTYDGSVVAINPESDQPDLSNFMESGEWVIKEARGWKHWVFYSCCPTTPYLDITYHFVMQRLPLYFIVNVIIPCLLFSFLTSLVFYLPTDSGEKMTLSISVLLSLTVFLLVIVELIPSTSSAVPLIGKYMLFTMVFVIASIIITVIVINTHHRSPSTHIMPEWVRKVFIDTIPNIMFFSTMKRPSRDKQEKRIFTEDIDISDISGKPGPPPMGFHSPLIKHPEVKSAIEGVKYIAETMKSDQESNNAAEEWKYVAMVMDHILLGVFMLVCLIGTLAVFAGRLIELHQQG
UniProt P09391, sequence (whole entry, looked up): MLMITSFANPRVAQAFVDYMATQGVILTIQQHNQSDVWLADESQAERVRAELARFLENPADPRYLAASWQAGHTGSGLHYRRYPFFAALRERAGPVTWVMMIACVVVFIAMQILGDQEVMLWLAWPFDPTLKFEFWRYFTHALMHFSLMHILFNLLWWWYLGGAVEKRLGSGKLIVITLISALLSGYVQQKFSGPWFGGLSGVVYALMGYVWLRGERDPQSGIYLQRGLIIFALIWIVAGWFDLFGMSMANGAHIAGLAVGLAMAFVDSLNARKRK
UniProt P24530, sequence (whole entry, looked up): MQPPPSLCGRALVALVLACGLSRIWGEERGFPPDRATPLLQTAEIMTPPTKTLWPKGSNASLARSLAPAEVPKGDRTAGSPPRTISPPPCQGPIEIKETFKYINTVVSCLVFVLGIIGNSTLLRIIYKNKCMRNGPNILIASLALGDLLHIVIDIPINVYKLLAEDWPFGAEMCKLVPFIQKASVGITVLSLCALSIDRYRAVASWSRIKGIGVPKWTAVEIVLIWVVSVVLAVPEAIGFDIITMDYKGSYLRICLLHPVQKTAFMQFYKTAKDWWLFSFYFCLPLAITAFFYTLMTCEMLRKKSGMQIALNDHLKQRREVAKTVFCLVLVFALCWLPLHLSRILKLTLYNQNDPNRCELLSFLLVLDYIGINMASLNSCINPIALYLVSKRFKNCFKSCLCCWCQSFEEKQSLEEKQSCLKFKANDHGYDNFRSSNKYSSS
UniProt Q13951, sequence (whole entry, looked up): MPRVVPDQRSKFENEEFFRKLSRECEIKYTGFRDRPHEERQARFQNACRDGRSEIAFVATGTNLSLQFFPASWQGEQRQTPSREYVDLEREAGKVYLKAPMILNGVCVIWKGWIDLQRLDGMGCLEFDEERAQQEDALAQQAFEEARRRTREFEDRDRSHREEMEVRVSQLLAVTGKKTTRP

Compound	target	test	system	setting	scale	endpoint	value
CNC(=O)C[C@H](Cc1ccc(C#N)cc1)NC(=O)c1cc(-c2ccc(CN[C@H](C)c3ccc(C)cc3)o2)ccc1Cl	Phosphatidylinositol 4-phosphate 3-kinase C2 domain-containing subunit alpha (PIK3C2A, Homo sapiens, UniProt O00443)	enzyme activity, inhibitor		1 µM		activity vs control	106%
CCCCCC=CC=C1C(=O)C=CC1CC=CCCCC(=O)O (centres unmarked)	NIT1 (Homo sapiens, UniProt Q86X76)	competitive isoTOP-ABPP	Ramos soluble proteome	100 µM, 60 min, added: iodoacetamide probe	reference: DMSO over compound-treated, higher = stronger cysteine blockade	isoTOP-ABPP competition ratio	12
O=C1c2sc(-c3ccc(N4CCC(CO)CC4)nc3F)nc2CCN1c1cccnc1	Endothelin receptor type B (EDNRB, Homo sapiens, UniProt P24530)	ligand displacement, radioligand		1 µM		inhibition	5%
N[C@@H](Cc1c[nH]c2cc(OCc3ccccc3)ccc12)C(=O)O	Large neutral amino acids transporter small subunit 1 (SLC7A5, Homo sapiens, UniProt Q01650)	[3H]-L-leucine uptake	HT-29			Hill slope	-1.77
CCCC[C@H](NC(C)=O)C(=O)N[C@@H](CCC(=O)O)C(=O)N[C@H](C(=O)N[C@@H](CC(=O)O)C(=O)COC(=O)c1c(C)cccc1C)[C@@H](C)O	CASP6	enzyme activity, inhibitor				kinact/KI	72000 M⁻¹ s⁻¹
C[N+]1(C)CCCC1	Chrnd/Chrna1/Chrne (Mus musculus, UniProt P02716+P04756+P20782, G173K/S470W)	ligand binding, agonist, single-channel kinetics		chain K	reference: wild type over mutant	affinity ratio	2
O=C(O)c1ccc(Nc2c(-c3ccc(CON=Cc4cn(-c5ccccc5)nn4)cc3)nc3cc(-c4ccccc4)ccn23)cc1 (mixture of isomers)	TDP1	enzyme activity, inhibitor		100 µM, unpurified compound		inhibition	82.7%
CC(C)Oc1cc(Cl)ccc1CNc1cc(-c2ccccc2)nc2ncnn12	G-protein coupled receptor 3 (GPR3, Homo sapiens, UniProt P46089)	cAMP reporter	human cells	10 nM	higher is more cAMP	cAMP luminescence	60700 a.u. and 45800 a.u. and 37800 a.u. and 51400 a.u. and 54300 a.u. and 14400 a.u. and 71100 a.u. and 30600 a.u.
CC[C@H](C)[C@H](NC(=O)[C@H](CCC(=O)O)NC(=O)[C@H](Cc1ccc(I)cc1)NC(C)=O)C(=O)N[C@@H](CC(=O)O)C(=O)COC(=O)c1c(C)cccc1C	CASP6	enzyme activity, inhibitor				kinact/KI	37300 M⁻¹ s⁻¹
CC(=O)N1c2ccc(-c3ccc(CNC(=O)c4cn5cc(-c6cnc(N)nc6)nc(N6CCOCC6)c5n4)cc3)cc2CC[C@@H]1C	Bromodomain-containing protein 1, bromodomain (BRD1, Homo sapiens, UniProt O95696)	binding, competition with immobilised ligand		10 µM		remaining binding	87%
Cc1ccc2ccc(NC(=O)OCCCN(CCCOC(=O)Nc3ccc4ccc(C)nc4n3)Cc3ccc(/N=N\c4ccc(CN(CCCOC(=O)Nc5ccc6ccc(C)nc6n5)CCCOC(=O)Nc5ccc6ccc(C)nc6n5)cc4)cc3)nc2n1	T1, RNA, abasic bulge mismatch	CD titration				binding	binds
COc1ccc(C2=Nn3c(nnc3C3CCCCC3)SC2)cc1	Uncharacterized protein	inhibitor, coupled colorimetric	Trypanosoma brucei			Hill slope	0.75
CC(=O)NCCCC[C@H](NC(C)=O)C(=O)N[C@@H](CCCC(=O)O)C(=O)N[C@@H](C)C(=O)N[C@@H](CC(=O)O)C(=O)COC(=O)c1c(C)cccc1C	CASP6	enzyme activity, inhibitor				kinact/KI	3550 M⁻¹ s⁻¹
CC[C@H](C)[C@@H]1NC(=O)[C@H](Cc2c[nH]c3ccccc23)NC(=O)[C@H](C)NC(=O)[C@H](Cc2ccc(O)cc2)NC(=O)CNC(=O)[C@H](Cc2ccccc2)N(C)C(=O)[C@H](C)N(C)C(=O)[C@H](Cc2ccc(O)cc2)NC(=O)[C@H](C(C)C)NC(=O)[C@H](CC(C)C)NC(=O)[C@H](Cc2ccccc2)NC(=O)CSC[C@@H](C(=O)NCC(N)=O)NC1=O	BRD4 BD1	thermal stability, DSF		200 µM		ΔTm	0.78 °C
O=C(O)Cc1cc2c(cc1C(=O)c1ccccc1Cl)OCO2	Gria1	glutamate-evoked current, whole-cell patch clamp	HEK-293T	concentration not given, weighted tau, 1 ms pulse, added: glutamate		deactivation time constant	8.3 ± 0.3 ms
O=C(O)c1ccc(Nc2c(-c3ccc(CON=Cc4csc5ccccc45)cc3)nc3cc(-c4ccccc4)ccn23)cc1	TDP1	enzyme activity, inhibitor		100 µM, unpurified compound		inhibition	72%
CC(C)=CC1OC(C)(C)C2C=C3C(=O)C(Cl)=CC(O)C3C3C(O)C4OC4C(=O)C132 (centres unmarked)	Tyrosine-protein kinase ABL1, phosphorylated (ABL1, Homo sapiens, UniProt P00519, H396P)	cell-free assay, competition with immobilised ligand		10 µM		remaining binding	83%
N[C@H]1CC[C@H](Nc2nccc(-c3cccnc3Oc3ccc(NC(=O)NC4CC4)c4ccccc34)n2)CC1	Protein RCC2 (RCC2, Homo sapiens, UniProt Q9P258)	kinobead competition pulldown	HEK293/HCT116 lysate mixture	10 µM, 1 h, 4 °C	lower = stronger competition	log2 LFQ intensity	23.5 and 23.1 and 23.2

Compound	target	test	system	setting	scale	endpoint	value
CCCCCCOc1ccc(C(=O)OCC[N+]2(C)CC=CCC2)cc1 (centres unmarked)	Muscarinic acetylcholine receptor M5 (CHRM5, Homo sapiens, UniProt P08912)		membranes	1 µM, 15 h, no carbachol	reference: control	basal binding	1.19 ± 0.04 fold
CCCCCCCCCCCCC/C=C/C=O	Heterogeneous nuclear ribonucleoprotein F (Homo sapiens, UniProt P52597)	competitive isoTOP-ABPP, item: HNRPF cysteine peptide	Ramos soluble proteome	100 µM, added: iodoacetamide probe	reference: DMSO over compound-treated, higher = stronger cysteine blockade	isoTOP-ABPP competition ratio	1
CC[C@H](NC(=O)[C@@H](NC(=O)[C@@H](NC(C)=O)C(C)C)C(C)(C)C)C(=O)N[C@@H](CC(=O)O)C(=O)COC(=O)c1c(C)cccc1C	CASP6	enzyme activity, inhibitor				kinact/KI	39300 M⁻¹ s⁻¹
CC(C)[C@@H]1NC(=O)[C@H](Cc2ccccc2)NC(=O)CSC[C@@H](C(N)=O)NC(=O)[C@H](CCC(=O)O)NC(=O)[C@H](CO)NC(=O)[C@H](Cc2c[nH]c3cccc(Cl)c23)NC(=O)[C@H](C2CCCCC2)NC(=O)[C@H](C(C)C)NC(=O)[C@H](Cc2ccc(O)cc2)NC(=O)[C@H](CC(=O)O)NC(=O)[C@H](Cc2c[nH]c3ccccc23)NC(=O)[C@H](Cc2ccc(N)nc2)NC(=O)[C@H](Cc2c[nH]c3ccc(Cl)cc23)NC(=O)[C@H](CCC(=O)O)NC1=O	Interleukin-1 receptor-like 2 (IL1RL2, Homo sapiens, UniProt Q9HB29)	reporter gene (SEAP), inhibitor, HEK-Blue IL-36R reporter	HEK-Blue IL-36R cells	0.41 µM, 6 h, added: IL-36γ 0.3 ng/mL		remaining activity	38.3%
Cc1ccc2c(c1)C(O)(CC(=O)c1ccc3c(c1)OCO3)C(=O)N2 (centres unmarked)	Uncharacterized protein	inhibitor, coupled colorimetric	Trypanosoma brucei			Hill slope	1.4
COC(=O)Cc1cc2c(cc1C(=O)c1ccccc1)OCO2	Gria1	glutamate-evoked current, whole-cell patch clamp	HEK-293T	concentration not given, weighted tau, 1 ms pulse, added: glutamate		deactivation time constant	2.3 ± 0.1 ms
Cc1ccc(S(=O)(=O)N2CCC2=O)cc1	Rhomboid protease GlpG (glpG, Escherichia coli, UniProt P09391)	enzyme activity, inhibitor, gel-based chimeric protein substrate				IC50	inactive
FC(F)(F)c1ccc2[nH]c(-c3ccccn3)nc2c1	Core-binding factor subunit beta, with RUNX1 Runt domain (Homo sapiens, UniProt Q13951)	Runt domain binding, inhibitor, FRET				IC50	inactive
CCCCCCOc1ccc(C(=O)OCCN2CC=CCC2)cc1	Muscarinic acetylcholine receptor M3 (CHRM3, Homo sapiens, UniProt P20309)		membranes	1 µM, 15 h, no carbachol	reference: control	basal binding	0.95 ± 0.03 fold
O=C(O)c1ccc(Nc2c(-c3ccc(CON=Cc4ccccc4OCc4cn5cccnc5n4)cc3)nc3cc(-c4ccccc4)ccn23)cc1 (mixture of isomers)	TDP1	enzyme activity, inhibitor		100 µM, unpurified compound		inhibition	99.2%
O=C1c2sc(-c3ccc(N4CCC(F)C4)nc3F)nc2CCN1c1cccnc1 (centres unmarked)	Urotensin-2 receptor (UTS2R, Homo sapiens, UniProt Q9UKP6)	ligand displacement, radioligand		1 µM		inhibition	1%
O=C(O)c1ccc(Nc2c(-c3ccccc3)nc3ccc(CON=Cc4cnc(O)c(Cl)c4)cn23)cc1 (mixture of isomers)	TDP1	enzyme activity, inhibitor		100 µM, unpurified compound		inhibition	1.4%
CC[C@H](C)[C@@H]1NC(=O)[C@H](Cc2c[nH]c3ccccc23)NC(=O)[C@H](Cc2ccccc2)N(C)C(=O)[C@H](C(C)C)NC(=O)[C@H](CC(C)C)NC(=O)[C@H](Cc2ccccc2)NC(=O)CSC[C@@H](C(=O)N[C@@H](CC(N)=O)C(N)=O)NC(=O)[C@H](Cc2ccccc2)NC1=O	BRD4 BD1	thermal stability, DSF		100 µM		ΔTm	1.11 °C
c1ccc(Nc2nc(NC3CCCCC3)c3ccccc3n2)cc1	Beta-2 adrenergic receptor (ADRB2, Homo sapiens, UniProt P07550)	β-arrestin2 recruitment, PathHunter and GloSensor			reference: GloSensor IC50 over PathHunter IC50	bias factor	> 16 fold
O=[N+]([O-])c1cc(Br)cc([N+](=O)[O-])c1NS(=O)(=O)c1ccc(Br)cc1	HAB1 (Arabidopsis thaliana, UniProt Q9CAJ0)	inhibitor		200 µM, no PYL receptor	higher = more activity	phosphatase activity	0.718 a.u. and 0.827 a.u. and 0.75 a.u.
COC(=O)Cc1cc2c(cc1C(=O)c1ccccc1I)OCO2	Gria1	glutamate-evoked current, whole-cell patch clamp	HEK-293T	concentration not given, weighted tau, 500 ms pulse, added: glutamate		desensitization time constant	2.3 ± 0.1 ms
Cc1cc(NC(=O)[C@H](O)c2cc(F)cc(F)c2)ccc1-c1cnc(N)c(C(=O)NC(C)C)c1	Eukaryotic translation initiation factor 2-alpha kinase 1 (EIF2AK1, Homo sapiens, UniProt Q9BQI3)	binding, competition with immobilised ligand		0.1 µM		remaining binding	93%

Some of these lines once more:
Compound	target	test	system	setting	scale	endpoint	value
O=C1c2sc(-c3ccc(N4CCC(CO)CC4)nc3F)nc2CCN1c1cccnc1	Endothelin receptor type B (EDNRB, Homo sapiens, UniProt P24530)	ligand displacement, radioligand		1 µM		inhibition	5%
N[C@@H](Cc1c[nH]c2cc(OCc3ccccc3)ccc12)C(=O)O	Large neutral amino acids transporter small subunit 1 (SLC7A5, Homo sapiens, UniProt Q01650)	[3H]-L-leucine uptake	HT-29			Hill slope	-1.77
CCCC[C@H](NC(C)=O)C(=O)N[C@@H](CCC(=O)O)C(=O)N[C@H](C(=O)N[C@@H](CC(=O)O)C(=O)COC(=O)c1c(C)cccc1C)[C@@H](C)O	CASP6	enzyme activity, inhibitor				kinact/KI	72000 M⁻¹ s⁻¹
C[N+]1(C)CCCC1	Chrnd/Chrna1/Chrne (Mus musculus, UniProt P02716+P04756+P20782, G173K/S470W)	ligand binding, agonist, single-channel kinetics		chain K	reference: wild type over mutant	affinity ratio	2
O=C(O)c1ccc(Nc2c(-c3ccc(CON=Cc4cn(-c5ccccc5)nn4)cc3)nc3cc(-c4ccccc4)ccn23)cc1 (mixture of isomers)	TDP1	enzyme activity, inhibitor		100 µM, unpurified compound		inhibition	82.7%
